Published values collected from several papers.
Compare with care: the assays were run in different laboratories. “And” joins repeats or separate records; there may be more than shown. ± marks the error that the study gave.

SMILES | assay | test system | setting | scale | endpoint | result
Cl.[2H]C([2H])([2H])CC(=O)c1cnc(NC(=O)C2CC2)cc1Nc1cccc(-c2ncn(C([2H])([2H])[2H])n2)c1OC |  | human, fasted, plasma | oral, 25 mg, single dose, liquid formulation |  | CL/F | 13.5 L/h
CNC(=O)c1ccc(-c2cnc3ncc(Cc4ccc5ncccc5c4)n3n2)cc1F |  | Japanese patients | oral, 400 mg, any grade |  | Agitation dose reduction/interruption | 1%
Cn1ncc(S(=O)(=O)NCc2ccc(S(=O)(=O)NC3CC3)cc2)c1C(=O)O | colloidal aggregate formation, dynamic light scattering | 50 mM potassium phosphate buffer | 200 µM, pH 7.0, 1% DMSO | higher = more aggregation | DLS scattered light intensity | 946000 counts/s
CN(CCCN1CCN(C(=O)CN2CCN(CC(=O)[O-])CCN(CC(=O)[O-])CCN(CC(=O)[O-])CC2)CC1)c1ccc2nccc(C(=O)NCC(=O)N3CC(F)(F)C[C@H]3C#N)c2c1.[68Ga+3] |  | mice, HT-1080.hFAP and HT-1080 wild-type xenografts, heart | iv, 500 pmol, 1 h post injection |  | uptake | 0.2 %IA/g
Oc1ccc(/C=C/c2cc(O)cc(O)c2)cc1 |  | male Wistar rats, plasma | oral, 10 mg/kg |  | AUC(0-24 h) | 523 ± 84.2 ng·h/mL
O=C1CC[C@H](N2Cc3cc(N4CCN(CC5CCN(c6ccc([C@@H]7c8ccc(O)cc8CC[C@@H]7c7ccccc7)cc6)CC5)CC4)ccc3C2=O)C(=O)N1 |  | human | oral, 200 mg, with: dabigatran etexilate 75 mg |  | participants with TEAE dry throat | 0%
O=C(OC(C(F)(F)F)C(F)(F)F)N1CCN(Cc2cccc(Oc3ccccc3)c2)CC1 | PET blocking study | rhesus monkey, brain HIP | 0.03 mg/kg, compound pretreatment, with: [18F]T-401 tracer |  | k2 | 0.098 min⁻¹
NC1(C(=O)N[C@@H](CCO)c2ccc(Cl)cc2)CCN(c2nc[nH]c3nccc2-3)CC1 |  | metastatic CRPC patients | 480 mg b.i.d., grade 3 to 4, treatment-related, with: enzalutamide 160 mg daily |  | incidence of Leukopenia | 0%
OC[C@H]1O[C@@H](c2ccc(F)c(Cc3cc4ccccc4s3)c2)[C@H](O)[C@@H](O)[C@@H]1O |  | Japanese patients, type 1 diabetes | oral, 50 mg/day, onset day 9 | reference: patients | hypoglycaemia-related adverse event | 7%
O=C(Nc1nc2cccc(-c3ccc(CN4CCS(=O)(=O)CC4)cc3)n2n1)C1CC1 | refers to: thrombocytopenia | rheumatoid arthritis patients | oral, 30 mg once daily, 4 weeks, any relatedness |  | treatment-emergent adverse events | 0%
Cn1c(C(F)(F)F)cc(=O)n(-c2cc(Oc3cccnc3OCC(=O)O)c(Cl)cc2F)c1=O |  | Crl:CD(SD) rats, male, plasma | oral diet, 800 ppm in diet, day 1, 90-day toxicity study |  | AUC(0-24 h) | 20900 ng·h/mL
CC(=O)c1c(C)c2cnc(Nc3ccc(N4CCNCC4)cn3)nc2n(C2CCCC2)c1=O |  | G-Smo medulloblastoma mice (hGFAP-Cre x SmoM2), serum | intraperitoneal, 25 mg/kg single, dosed at postnatal day P10 |  | volume of distribution | 8.45 mL
N[C@@H]1c2ccccc2OC12CCN(c1cnc3c(N4CCCc5ncccc54)n[nH]c3n1)CC2 |  | advanced metastatic solid tumour patients, plasma | oral, 50 mg once daily, cycle 1 day 1, geometric mean |  | AUC(0-tau) | 4510 ng·h/mL
CC#CC(=O)N1CC[C@@H](n2c(=O)n(-c3ccc(Oc4ccccc4)cc3)c3c(N)ncnc32)C1 |  | human, fasting, plasma | oral, 160 mg once daily, cycle 1 day 28 |  | Tmax, median | 3 h
Cc1nc(-c2cnc(NC(C)C)n(C)c2=O)ccc1Oc1ccnc(-c2cnn(C)c2)c1 |  | Beagle dog, male, plasma | oral, 10 mg/kg, crossover study, mean |  | half-life | 9.23 h
C[C@@H](Oc1ccc(S(C)(=O)=O)cc1C(=O)N1C[C@@H]2C[C@]2(c2cc(C(F)(F)F)on2)C1)C(F)(F)F |  | young healthy humans, urine | oral, 10 mg, 0 to 24 h, single dose |  | fraction excreted in urine | 2.71%
CC1C(C)[C@H](C(=O)NCCc2nnnn2-c2ccccc2)[C@@H]1C(=O)[O-].[Na+] (stereo partly drawn) | colloidal aggregate formation, dynamic light scattering | 50 mM potassium phosphate buffer | 200 µM, pH 7.0, 1% DMSO | higher = more aggregation | DLS scattered light intensity | 598000 counts/s
O=C1NCCc2nc(OCc3cccc(F)c3)ccc21 | modified Irwin test | Sprague-Dawley rat, male | oral, 100 mg/kg, 30 min | higher = stronger effect | corneal reflex loss score | 0
CCn1ncc2c1-c1cnc(N)c(c1)O[C@H](C)c1cc(F)ccc1-c1nn(C)nc1C2 |  | female athymic nude mice, sample B PDX | oral, 0.2 mg/kg once daily for 1 days, 1 h |  | unbound plasma concentration | 24 ± 1.4 nM
NCCONC(=O)[C@@H]1CC[C@@H]2CN1C(=O)N2OS(=O)(=O)O | refers to: leading to permanent discontinuation | healthy Chinese men | intravenous, 2 g, treatment-related |  | adverse event incidence | 0%

SMILES | assay | test system | setting | scale | endpoint | result
CO[C@@H]1[C@H](O)[C@@H](CO)O[C@H]1n1c([N+](=O)[O-])nc2c(=O)[nH]c(N)nc21 | depurination, RP-HPLC | citrate-phosphate buffer 0.5 mM | 2700 min, pH 5, 37 °C |  | nucleoside remaining fraction | 0.382
O=C(O)CC[C@H](NC(=O)N[C@@H](CCCCNC(=O)[C@H](Cc1ccc2ccccc2c1)NC(=O)[C@H]1CC[C@H](CNC(=O)CN2CCN(CC(=O)O)CCN(CC(=O)O)CCN(CC(=O)O)CC2)CC1)C(=O)O)C(=O)O |  | male BALB/c nude mice, LS174T-PSMA xenografts, prostate | intravenous, 0.3 nmol, 2 h, radiolabelled (111In or 99mTc) | reference: tumour over prostate | tumour-to-tissue ratio | 140 ± 95.5
O=C(O)CCCOc1ccc([18F])cc1-c1cc(-c2ccccc2C(F)(F)F)n(-c2ccccc2)n1 | gamma counting | male ddY mice, bone | intravenous, 2.1 MBq, 60 min |  | radioactivity uptake | 0.74 ± 0.19 SUV
FC(F)(F)c1ccc(CNc2ccc(Cc3c[nH]c4ncc(Cl)cc34)cn2)cn1 | refers to: mucosal inflammation | human, advanced solid tumours, all patients | oral, 1000 mg/day, any grade |  | treatment-related adverse events | 8%
CC(=O)c1cc(C(=O)N[C@@H](C)Cn2ccc(-c3ccc(C#N)c(Cl)c3)n2)[nH]n1 |  | human, fasted, plasma | oral tablet, 300 mg, geometric mean |  | AUC(0-tlast) | 20500 ng·h/mL
Cn1ncc(S(=O)(=O)NC2CCSc3c(F)cccc32)c1C(=O)O (stereo not drawn) | colloidal aggregate formation, dynamic light scattering | 50 mM potassium phosphate buffer | 200 µM, pH 7.0, 1% DMSO | higher = more aggregation | DLS scattered light intensity | 543000 counts/s
Cc1cnc(N2CC3(CCOCC3)C2)c(C(=O)Nc2ccc(C(=O)N3CCc4cc(C(=O)Nc5c(C)cccc5F)sc4-c4ccccc43)cc2)c1 |  | human, nasal mucosal lining fluid | inhaled, 5 mg twice daily, 48 h |  | concentration | 13500 ng/mL
O=C(O)CCC(=O)O.[2H]C([2H])([2H])Oc1cc(C)c2[nH]ccc2c1CN1CC[C@@H](C2CC2)C[C@H]1c1ccc(C(=O)O)cc1 |  | human, plasma | 50 mg twice daily, day 1, multiple ascending dose, median |  | Tmax | 4 h
CCCOc1ccc(-c2ccc(C#N)cc2)cc1 | refers to: compound | human pregnant women, female fetuses, maternal serum | dose not given, paired maternal-cord samples, mean |  | concentration | 0.86 ng/mL
[O]=[Co].[O]=[Co][O][Co]=[O] |  | Crl:CD(SD) rat female, blood | oral, 73.4 mg Co/kg/day, 90 days |  | haemoglobin | 9.51 mmol/L
C[C@@H](Nc1cc(F)cc(F)c1)c1cc(C(=O)N(C)C)cc2c(=O)cc(N3CCOCC3)oc12 | refers to: Pneumonitis | advanced solid tumour patients | oral, dose not given, dose finding |  | related serious adverse events | 0%
COc1cc2c3c(n(CCCNC(C)C)c(=O)c2cc1OC)-c1nc2c(cc1C3=O)OCO2 |  | male CD1 mouse, plasma | intravenous, 1 mg/kg |  | Vss | 22.2 L/kg
O=C1Cc2cc(CCN3CCN(c4nsc5ccccc45)CC3)c(Cl)cc2N1 |  | male Hartley guinea pig, anaesthetized | intravenous infusion, 0.3 mg/kg, 10 min infusion, post-infusion |  | QTc interval | 391 ± 0.4 ms
CCOc1ccc2nc(NC(=O)c3cc(=O)c4ccc(C)cc4o3)sc2c1 | haemolysis | sheep erythrocytes | 1 h, pH 7.5 |  | HC50 | > 128 µg/mL
COc1ccc2c(c1)CN(C(=O)CCN1CCC(Cc3ccccc3)CC1)CC[S@@+]2[O-] |  | healthy male volunteers, urine | intravenous, 0.4 mg/kg | reference: dose | urinary excretion | 10.3 ± 2.39%
Cc1ccc([C@@H]2O[C@H](CO)[C@@H](O)[C@H](O)[C@H]2O)cc1Cc1ccc(-c2ccc(F)cc2)s1 | refers to: inorganic phosphorus | Japanese type 2 diabetes patients | 25 mg, day 1, 24 h urine collection | reference: baseline | urinary phosphate excretion change | -228 mg
CCc1cc(C(=O)NC)c2nccc(N3CCc4c(cc(Cn5ccnc5)cc4-c4cn(C)nc4C(F)(F)F)C3=O)c2c1 |  | Sprague Dawley rat | oral, 50 mg/kg once daily, 7 days | reference: vehicle | kidney weight change | 6.18%
O=C(O)CSc1nnc(Br)n1-c1ccc(C2CC2)c2ccccc12 |  | KM mouse, chronic hyperuricaemia model | dose not given, day 16 |  | body weight | 37.6 g and 29 g and 30 g and 34.4 g and 34 g and 35.4 g
COc1ccnc(C(=O)NCC(=O)O)c1O | soil adsorption | clay loam soil | pH 7.2, organic carbon 4.4 % |  | Freundlich coefficient KF | 6.99 mL/g

For quick reference, copied from above:
SMILES | assay | test system | setting | scale | endpoint | result
CCn1ncc2c1-c1cnc(N)c(c1)O[C@H](C)c1cc(F)ccc1-c1nn(C)nc1C2 |  | female athymic nude mice, sample B PDX | oral, 0.2 mg/kg once daily for 1 days, 1 h |  | unbound plasma concentration | 24 ± 1.4 nM
NCCONC(=O)[C@@H]1CC[C@@H]2CN1C(=O)N2OS(=O)(=O)O | refers to: leading to permanent discontinuation | healthy Chinese men | intravenous, 2 g, treatment-related |  | adverse event incidence | 0%
CO[C@@H]1[C@H](O)[C@@H](CO)O[C@H]1n1c([N+](=O)[O-])nc2c(=O)[nH]c(N)nc21 | depurination, RP-HPLC | citrate-phosphate buffer 0.5 mM | 2700 min, pH 5, 37 °C |  | nucleoside remaining fraction | 0.382
O=C(O)CC[C@H](NC(=O)N[C@@H](CCCCNC(=O)[C@H](Cc1ccc2ccccc2c1)NC(=O)[C@H]1CC[C@H](CNC(=O)CN2CCN(CC(=O)O)CCN(CC(=O)O)CCN(CC(=O)O)CC2)CC1)C(=O)O)C(=O)O |  | male BALB/c nude mice, LS174T-PSMA xenografts, prostate | intravenous, 0.3 nmol, 2 h, radiolabelled (111In or 99mTc) | reference: tumour over prostate | tumour-to-tissue ratio | 140 ± 95.5
O=C(O)CCCOc1ccc([18F])cc1-c1cc(-c2ccccc2C(F)(F)F)n(-c2ccccc2)n1 | gamma counting | male ddY mice, bone | intravenous, 2.1 MBq, 60 min |  | radioactivity uptake | 0.74 ± 0.19 SUV
FC(F)(F)c1ccc(CNc2ccc(Cc3c[nH]c4ncc(Cl)cc34)cn2)cn1 | refers to: mucosal inflammation | human, advanced solid tumours, all patients | oral, 1000 mg/day, any grade |  | treatment-related adverse events | 8%
